Measurements from different studies.
Compare with care: the assays were run in different laboratories. ± gives the spread as reported. Converted amounts (≈) assume the structure as drawn.

`COc1c2c(cc3oc(=O)cc(-c4ccccc4)c13)C(=O)c1cc(C)cc(O)c1C2=O` — result for “inhibition zone diameter”: 8 mm (Bacillus cereus; MTCC 1306; 100 µg/disc).
For `N=C(NO)NN=Cc1nccc2ccccc12`, the selectivity index was 2.5 (human mastadenovirus C; plaque reduction; A549, McEwen; reference: TC50 over IC50).
`O=C[C@H](C[C@H]1CCNC1=O)NC(=O)[C@H](CC1CCCCC1)NC(=O)OCc1cccc(Cl)c1` gave an EC50 of 160 ± 60 nM (human rhinovirus 51; viral replication; WI-38; 37 °C).
For `O=C(CCNC(=O)c1ccsc1)Nc1cccc(Oc2ccc(Cl)cc2)c1`, the pgRNA level was 1.47 fold (hepatitis B virus; RT-qPCR; HepG2.2.15.7; 10 µM; reference: control).
`CC[C@@H](C)[C@@H](NC(=O)[C@@H](C)NC(=O)[C@@H](CCCCN)NC(=O)[C@@H](CC(C)C)NC(=O)[C@@H](C)NC(=O)[C@H](NC(=O)[C@@H](CCCCN)NC(=O)[C@@H](CC(C)C)NC(=O)[C@H](NC(=O)[C@@H](CCCCN)NC(=O)[C@@H](CCCCN)NC(=O)[C@@H](CCCCN)NC(=O)[C@@H](C)NC(=O)[C@@H](CCCCN)NC(=O)[C@@H](CO)NC(=O)[C@@H](Cc1ccccc1)NC(=O)[C@H](NC(=O)[C@@H](CCCCN)NC(=O)[C@@H](CC(C)C)NC(=O)[C@@H](Cc1ccccc1)NC(=O)[C@@H](CO)NC(=O)[C@@H](CCCCN)NC(=O)[C@@H](Cc1c[nH]c2ccccc12)NC(=O)[C@@H](CCCCN)NC(C)=O)[C@H](C)O)C(C)C)[C@H](C)O)C(=O)N[C@H](CO)C(=O)N[C@H](CCCCN)C(N)=O` has an MIC of 0.7 µM (≈ 2.13 µg/mL) (Acinetobacter baumannii; 689, Mueller-Hinton broth; 24 h, 37 °C).
`Cc1ccc(S(=O)(=O)N(CCc2nnc(S)o2)c2ccccc2)cc1` gave a relative inhibition of 64.7% (Colletotrichum capsici; cup plate method; 100 µg/mL; reference: fluconazole).
`Cc1ccc(NC(=O)N2CCCN3CCC(c4ccc(C#CC5(O)CCCCC5)cc4)C3C2)cc1` (stereo not shown) gave an EC90 of 460 ± 40 nM (Toxoplasma gondii; parasite growth; HFF, RH type I luciferase).
`Cc1ccc(NCC(=O)Nc2ccc(F)c(Cl)c2)cc1S(=O)(=O)N1CCOCC1`: antiplasmodial activity “no effect” (Plasmodium cynomolgi; liver-stage small forms (hypnozoites); 10 µM).
For `COC1C=COC2(C)Oc3c(C)c(O)c4c(c3C2=O)C2=NC3(CCN(CC(C)C)CC3)NC2=C(NC(=O)C(C)=CC=CC(C)C(O)C(C)C(O)C(C)C(OC(=O)Nc2cccnn2)C1C)C4=O` (stereo not shown), the MIC50 was 0.13 µM (≈ 0.12 µg/mL) (Mycobacteroides abscessus; 76 clinical isolates; 3 subspecies).
For `O=C[C@H](C[C@H]1CCNC1=O)NC(=O)[C@H](Cc1ccccc1)NC(=O)OCc1ccccc1`, the EC50 was 950 ± 490 nM (human rhinovirus 1B; viral replication; WI-38; 37 °C).
`CC1(CCCCCCCCCCCCOCCCOP(=O)(O)CO[C@H](CO)Cn2ccc(N)nc2=O)COC1` has a selectivity index of 1820 (human betaherpesvirus 5; cytopathic effect; AD169; reference: CC50 over EC50).
`O=C(N[C@@H](CC1CCCCC1)C(=O)N[C@@H](C[C@H]1CCNC1=O)C(=O)C(=O)NC1CC1)OCc1ccccc1` has an EC50 of 150 ± 70 nM (human rhinovirus 1B; viral replication; WI-38; 37 °C).
Under “HBV DNA remaining”, `Cc1ncnc(C)c1-c1ccc(C(=O)N2CC[C@H](C(=O)Nc3cc(F)c(F)c(F)c3)C2)[nH]1` is recorded as 45% (hepatitis B virus; measured: intracellular HBV DNA; HepG2.2.15; 0.1 µM, 144 h; reference: vehicle).
For `CC(C)S(=O)(=O)c1cccc(O)c(=O)c1O`, the selectivity index was 25 (hepatitis B virus; HepDES19; reference: CC50 over EC50).
With `C[C@@H]1C[C@H](Nc2ccccc2)c2cc(F)ccc2N1C(=O)c1ccccc1` the logit mortality was 0.11 (Aedes albopictus; 1 µM, second-instar larvae).
For `CC(=O)[O-].O.[Cu+2].[O-]c1ccc(Br)cc1C=NCCN1CCOCC1`, “inhibition zone diameter” read 14 mm (Bacillus cereus; 20 µL of 100 µM per disc).
`Cc1c2c(cc3oc(=O)cc(-c4ccccc4)c13)C(=O)c1cccc(O)c1C2=O` — result for “inhibition zone diameter”: 8 mm (Bacillus cereus; MTCC 1306; 100 µg/disc).
`O=C(Nc1ccccc1)N1CCCN2CCC(c3ccc(C#Cc4ccncc4)cc3)C2C1` (stereo not shown) gave an EC90 of 4880 nM (Toxoplasma gondii; parasite growth; HFF, RH type I luciferase).
For `C#CCN1CCc2c3n(c4ccccc24)C(=O)C(=C)C3(C(=O)OC)C1` (stereo not shown), the inhibition was 40 to 50% (hepatitis B virus; HBsAg secretion; HuH7-NTCP; 5 µM).
The EC50 of `CCOC(=O)/C=C/c1ccc(OCCNS(=O)(=O)c2c(Cl)cccc2Cl)c(OC)c1` is reported as 361 ± 5.1 µg/mL (tobacco mosaic virus; inactivation activity, half-leaf method).
`CCCCCc1ccc(C(=O)N2c3ccc(F)cc3[C@@H](Nc3ccccc3)C[C@H]2C)cc1` gave a logit mortality of 0 (Aedes albopictus; 1 µM, second-instar larvae).
`CN[C@H](CC(C)C)C(=O)N[C@H]1C(=O)N[C@@H](CC(N)=O)C(=O)N[C@H]2C(=O)N[C@H]3C(=O)N[C@H](C(=O)N[C@H](C(=O)O)c4cc(O)cc(O)c4-c4cc3ccc4O)[C@H](O)c3ccc(c(Cl)c3)Oc3cc2cc(c3O[C@@H]2O[C@H](CO)[C@@H](O)[C@H](O)[C@H]2O[C@H]2C[C@](C)(NCc3ccc(C(=O)OCCCCCCN(Cc4ccccn4)Cc4ccccn4)cc3)[C@H](O)[C@H](C)O2)Oc2ccc(cc2Cl)[C@H]1O` gave a regulation factor of 3.4 ± 1 (Bacillus subtilis; protein synthesis, measured: YceC; 168; concentration not given, 10 min, at peak effective concentration; reference: untreated).
With `C[C@@H]1C[C@H](Nc2ccccc2)c2cc(F)ccc2N1C(=O)c1ccc(Cl)c(Cl)c1` the logit mortality was 0.48 (Aedes albopictus; 1 µM, second-instar larvae).
`C[C@@H](c1ccn(Cc2ccc(I)cc2)n1)[C@](O)(Cn1cnnn1)c1ccc(F)cc1F`: growth inhibition “inhibited” (Candida krusei; growth curve; 4946, YPD medium; 0.25 µg/mL).
For `O=C(N[C@@H](Cc1ccccc1)C(=O)N[C@@H](C[C@H]1CCNC1=O)C(=O)C(=O)NC1CC1)OCc1ccccc1`, the EC50 was 70 ± 30 nM (human rhinovirus 51; viral replication; WI-38; 37 °C).
`CC(=O)OC[C@H]1O[C@@H]([Se]Cc2ccccc2C(F)(F)F)[C@H](OC(C)=O)[C@@H](OC(C)=O)[C@@H]1OC(C)=O` gave a viability of 92.5 ± 10.3% (Trypanosoma brucei brucei; bloodstream form; 5 µM, 24 h, 1 % DMSO).
`O=C(N[C@@H](CC1CCCCC1)C(=O)N[C@@H](C[C@H]1CCNC1=O)C(=O)C(=O)NC1CC1)OCc1cccc(Cl)c1` has an EC90 of 350 nM (human rhinovirus 51; viral replication; WI-38).
The selectivity index of `Cc1ccc(S(=O)(=O)Nn2c3c(cc(-c4nc5ccccc5s4)c2=O)CCCCCC3)cc1` is reported as 2.77 (Coxsackievirus B4; viral replication, plaque reduction; BGM cells; reference: CC50 over IC50).
The IC50 of `O=C(O)C(Cc1ccccc1)N1CSC(=S)N(CCN(CCN2CN(C(Cc3ccccc3)C(=O)O)CSC2=S)CCN2CN(C(Cc3ccccc3)C(=O)O)CSC2=S)C1` (stereo not shown) is reported as 20 µM (Leishmania tropica; parasite growth, MTT; 48 h, promastigote).
For `C[C@@H]1C[C@H](Nc2ccccc2)c2cc(F)ccc2N1C(=O)c1ccc(C#N)c(F)c1`, the logit mortality was 1.28 (Aedes albopictus; 1 µM, second-instar larvae).
`CC(=O)OC[C@H]1O[C@@H]([Se][C@@H]2O[C@H](COC(C)=O)[C@@H](OC(C)=O)[C@H](OC(C)=O)[C@H]2OC(C)=O)[C@H](OC(C)=O)[C@@H](OC(C)=O)[C@@H]1OC(C)=O` has a viability of at most 50% (Trypanosoma brucei brucei; bloodstream form; 5 µM, 24 h, 1 % DMSO).
The logit mortality of `C[C@@H]1C[C@H](Nc2ccccc2)c2cc(F)ccc2N1C(=O)c1ccc(C(F)(F)F)cc1` is reported as -0.31 (Aedes albopictus; 1 µM, second-instar larvae).
For `COC(=O)/C=C/c1ccc(OCCNS(C)(=O)=O)c(OC)c1`, the curative activity was 50.3 ± 1.9% (tobacco mosaic virus; half-leaf method; tobacco; 500 µg/mL).
`CCCCn1c2ccccc2c2ccnc(-c3cc(OC)c(OC)c(OC)c3)c21` has a viability of 80.2 ± 3.9% (Echinococcus granulosus; eosin staining; sensu stricto protoscoleces; 40 µM, 48 h, 10% fetal bovine serum).
Under growth inhibition, `O=C1NCCCN2CCC(c3ccc(C#Cc4ccccc4)cc3)C12` (stereo not shown) is recorded as “inactive” (Toxoplasma gondii; HFF, RH (type I); concentration not given).
For `O=C(Nc1ccccc1Nc1ccccc1)c1cccnc1C(F)(F)F`, the inhibition was 47.1% (Sclerotinia sclerotiorum; microbial growth; 50 µg/mL).
`COc1ccc(NC(=O)N2CCCN3CCC(c4ccc(C#CC5CC5)cc4)C3C2)cc1` (stereo not shown) — result for growth inhibition: “inactive” (Toxoplasma gondii; HFF, RH (type I); concentration not given).
`C#CCN1CCC23C(=C(C(=O)OC)CC(C(=O)OC)C12)Nc1ccccc13` (stereo not shown) has an inhibition of about 20% (hepatitis B virus; cccDNA level, qPCR; HuH7-NTCP; 5 µM).
For `N=C(NO)NN=Cc1cnc2cc(C(F)(F)F)ccc2c1O`, IC50 read “inactive” (Herpes simplex virus 1; viral replication, plaque reduction; Vero, McKrae; 4 days).
`C#CCN1CCc2c(n(C(=C)C(=O)OC)c3ccccc23)C(C(=O)OC)C1` (stereo not shown) gave an inhibition of about 80% (hepatitis B virus; cccDNA level, qPCR; HuH7-NTCP; 5 µM).
`O=C1CC(c2ccc(O)cc2)Oc2cc(O)cc([O][Ga+][O]c3cc(O)cc4c3C(=O)CC(c3ccc(O)cc3)O4)c21` (stereo not shown): “bacterial iron content” “decreased” (Pseudomonas aeruginosa; ICP-MS).
`C[N+]1=C2C=C(NCCc3c[nH]c4ccccc34)C(=O)c3[nH]cc(c32)CC1` has an IC50 of under 0.002 µM (Babesia divergens; intraerythrocytic growth, SYBR Green I; Rouen 1987).
`O=C(Nc1ccccc1)N1CCCN2CCC(c3ccc(C#Cc4cccnn4)cc3)C2C1` (stereo not shown) gave an EC90 of 4170 nM (Toxoplasma gondii; parasite growth; HFF, RH type I luciferase).
For `COc1c2c(cc3oc(=O)cc(C)c13)C(=O)c1cc(C)cc(O)c1C2=O`, “zone of inhibition” read 8 mm (Bacillus cereus; MTCC 1306; 100 µg/disc).
`Cc1cc(N2CC[C@@](C#N)(C3(C)CC3)C2=O)cc(C(=O)NCc2cc(F)cc(-c3cnn(C)c3)c2)n1` gave a parasitemia inhibition of 80% (Plasmodium falciparum; Pf3D70087/N9, humanized SCID mouse; 10 mg/kg, day 7 postinfection, 4-day treatment).
`COc1ccc(NC(=O)N2CCCN3CC[C@H](c4ccc(CCc5ccccc5)cc4)[C@@H]3C2)cc1` — result for growth inhibition: “inactive” (Toxoplasma gondii; HFF, RH (type I); concentration not given).
`CCN(CC)CC#CCNc1ccnc2cc(Cl)ccc12` gave an IC50 of 0.068 µM (Plasmodium falciparum; parasite growth; DD2; blood stage).
Under growth inhibition, `COc1ccc(NC(=O)N2CCCN3CCC(c4ccc(C#CC(C)C)cc4)C3C2)cc1` (stereo not shown) is recorded as “inactive” (Toxoplasma gondii; HFF, RH (type I); concentration not given).
With `CCCCCC1CC2CCCC3CC(C)N=C(N1)N32` (stereo not shown) the IC50 was 8.98 µM (Candida krusei; fungal growth; ATCC 6258).
`COc1ccc(-c2nccc3c4ccccc4n(Cc4ccccc4)c23)cc1` gave a viability of 85.8 ± 3.02% (Echinococcus granulosus; eosin staining; sensu stricto protoscoleces; 40 µM, 48 h, 10% fetal bovine serum).
With `COc1ccc(NC(=O)N2CCCN3CCC(c4ccc(C#Cc5ccccn5)cc4)C3C2)cc1` (stereo not shown) the EC90 was 960 ± 60 nM (Toxoplasma gondii; parasite growth; HFF, RH type I luciferase).
`O=C(Nc1ccccc1Nc1ccccc1)c1cccnc1Br` has an inhibition of 8.2% (Sclerotinia sclerotiorum; microbial growth; 50 µg/mL).
The worm killing of `COc1ccc(-c2nc(-c3ccccc3OC)[nH]c2-c2ccc(OC)cc2)cc1` is reported as 0% (Schistosoma mansoni; mature male and female worms; 5 µM, 96 h).
`Cc1ncc([N+](=O)[O-])n1CCOCc1nnc(SCC(=O)c2ccc(F)cc2)o1`: “inhibition zone diameter” 10 to 15 mm (Enterobacter cloacae; DMSO; 60 µg/mL, 24 h, 37 °C).
With `O=C(Nc1ccc2c(c1)CN(c1ccc(Cl)cc1)C2=O)N1CC[C@H](F)C1` the IC50 was over 64 µM (Trypanosoma brucei brucei; cell growth, resazurin; Squib 427; 3 days).
